Results gathered from unrelated publications.
Each numbered part is a random draw from the data of one study; scales do not carry over between parts. Positions count from the first letter of the parent shown.
Chain of UniProt O95835 (whole entry, looked up): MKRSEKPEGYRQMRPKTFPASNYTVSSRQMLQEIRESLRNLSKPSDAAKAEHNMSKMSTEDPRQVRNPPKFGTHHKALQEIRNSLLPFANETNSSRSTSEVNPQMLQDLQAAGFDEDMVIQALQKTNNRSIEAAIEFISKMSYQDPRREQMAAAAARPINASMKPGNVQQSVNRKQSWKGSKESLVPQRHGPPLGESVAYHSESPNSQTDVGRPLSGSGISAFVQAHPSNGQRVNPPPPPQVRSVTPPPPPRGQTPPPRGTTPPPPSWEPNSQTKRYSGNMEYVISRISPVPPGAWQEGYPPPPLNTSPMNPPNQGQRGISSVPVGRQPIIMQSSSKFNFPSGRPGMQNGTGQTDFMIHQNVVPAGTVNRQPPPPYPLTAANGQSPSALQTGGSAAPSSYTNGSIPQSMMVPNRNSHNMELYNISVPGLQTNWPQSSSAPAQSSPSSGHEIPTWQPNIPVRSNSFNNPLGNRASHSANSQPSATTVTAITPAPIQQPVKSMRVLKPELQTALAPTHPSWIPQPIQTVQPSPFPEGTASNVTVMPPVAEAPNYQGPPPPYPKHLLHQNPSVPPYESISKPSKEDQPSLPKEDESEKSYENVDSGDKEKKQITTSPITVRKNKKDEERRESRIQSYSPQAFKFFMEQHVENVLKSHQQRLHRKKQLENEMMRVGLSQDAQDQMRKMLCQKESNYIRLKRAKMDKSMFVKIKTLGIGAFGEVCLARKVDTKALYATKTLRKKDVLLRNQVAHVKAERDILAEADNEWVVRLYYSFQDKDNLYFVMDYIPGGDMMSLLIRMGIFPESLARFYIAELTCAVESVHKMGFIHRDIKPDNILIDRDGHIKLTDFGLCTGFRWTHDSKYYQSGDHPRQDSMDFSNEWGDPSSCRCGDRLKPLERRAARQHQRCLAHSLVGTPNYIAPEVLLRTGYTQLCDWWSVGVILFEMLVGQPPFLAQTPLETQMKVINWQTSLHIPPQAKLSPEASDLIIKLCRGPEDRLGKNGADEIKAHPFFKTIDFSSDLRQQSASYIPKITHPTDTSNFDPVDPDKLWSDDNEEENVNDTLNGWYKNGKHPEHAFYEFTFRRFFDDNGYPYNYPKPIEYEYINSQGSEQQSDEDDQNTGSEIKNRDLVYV
Chain of UniProt O15197 (whole entry, looked up): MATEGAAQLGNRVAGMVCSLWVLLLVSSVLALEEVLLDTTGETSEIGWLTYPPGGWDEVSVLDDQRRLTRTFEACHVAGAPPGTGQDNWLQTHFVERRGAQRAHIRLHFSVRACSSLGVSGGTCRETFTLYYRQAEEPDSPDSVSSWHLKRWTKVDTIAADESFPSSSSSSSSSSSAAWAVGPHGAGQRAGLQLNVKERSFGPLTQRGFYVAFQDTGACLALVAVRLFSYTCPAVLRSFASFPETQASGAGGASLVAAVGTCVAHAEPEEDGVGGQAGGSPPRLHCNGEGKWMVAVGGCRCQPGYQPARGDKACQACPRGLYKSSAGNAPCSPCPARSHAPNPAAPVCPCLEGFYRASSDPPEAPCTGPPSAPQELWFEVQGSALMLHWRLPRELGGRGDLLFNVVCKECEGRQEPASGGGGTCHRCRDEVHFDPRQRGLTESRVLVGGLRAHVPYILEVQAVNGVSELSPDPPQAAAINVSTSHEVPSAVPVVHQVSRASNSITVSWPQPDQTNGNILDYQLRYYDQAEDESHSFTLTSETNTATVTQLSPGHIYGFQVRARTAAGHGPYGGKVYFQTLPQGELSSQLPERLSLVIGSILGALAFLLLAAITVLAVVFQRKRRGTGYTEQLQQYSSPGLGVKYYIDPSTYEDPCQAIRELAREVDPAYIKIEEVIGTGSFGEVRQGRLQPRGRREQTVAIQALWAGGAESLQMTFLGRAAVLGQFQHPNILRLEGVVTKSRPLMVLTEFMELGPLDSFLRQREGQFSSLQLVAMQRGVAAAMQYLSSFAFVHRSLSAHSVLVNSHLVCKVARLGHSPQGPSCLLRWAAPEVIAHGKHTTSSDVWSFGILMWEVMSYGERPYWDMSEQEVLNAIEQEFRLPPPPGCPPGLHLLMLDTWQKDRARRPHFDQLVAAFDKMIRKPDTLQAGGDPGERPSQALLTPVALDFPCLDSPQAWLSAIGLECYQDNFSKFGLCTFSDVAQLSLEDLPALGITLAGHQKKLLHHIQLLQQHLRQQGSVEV
Chain of UniProt P51956 (whole entry, looked up): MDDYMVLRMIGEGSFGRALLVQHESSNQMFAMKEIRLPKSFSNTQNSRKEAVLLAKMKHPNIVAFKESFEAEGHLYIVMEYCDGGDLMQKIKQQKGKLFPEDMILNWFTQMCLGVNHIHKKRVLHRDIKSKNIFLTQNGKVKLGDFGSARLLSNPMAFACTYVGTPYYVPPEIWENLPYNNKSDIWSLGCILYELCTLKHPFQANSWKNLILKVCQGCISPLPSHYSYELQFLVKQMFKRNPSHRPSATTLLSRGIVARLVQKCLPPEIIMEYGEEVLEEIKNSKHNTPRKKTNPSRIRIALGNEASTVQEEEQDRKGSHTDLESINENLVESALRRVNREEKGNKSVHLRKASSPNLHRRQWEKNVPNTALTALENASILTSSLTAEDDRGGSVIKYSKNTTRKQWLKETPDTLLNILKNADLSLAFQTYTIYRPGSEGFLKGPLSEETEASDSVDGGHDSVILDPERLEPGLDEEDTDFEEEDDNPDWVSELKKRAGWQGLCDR
Chain of UniProt Q86UX6 (whole entry, looked up): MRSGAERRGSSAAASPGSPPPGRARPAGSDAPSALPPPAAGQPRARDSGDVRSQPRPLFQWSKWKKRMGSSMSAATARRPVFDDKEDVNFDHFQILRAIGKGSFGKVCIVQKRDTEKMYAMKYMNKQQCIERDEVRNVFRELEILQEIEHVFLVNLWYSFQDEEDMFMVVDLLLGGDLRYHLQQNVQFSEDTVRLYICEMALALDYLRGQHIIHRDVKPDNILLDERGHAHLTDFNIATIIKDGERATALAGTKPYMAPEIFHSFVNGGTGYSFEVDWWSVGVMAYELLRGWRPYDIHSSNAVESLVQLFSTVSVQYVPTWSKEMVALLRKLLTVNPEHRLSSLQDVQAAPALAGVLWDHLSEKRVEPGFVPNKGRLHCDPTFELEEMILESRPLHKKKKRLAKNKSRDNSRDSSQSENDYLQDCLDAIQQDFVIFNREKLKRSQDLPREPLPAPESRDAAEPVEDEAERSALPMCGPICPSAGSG
Chain of UniProt Q05397 (whole entry, looked up): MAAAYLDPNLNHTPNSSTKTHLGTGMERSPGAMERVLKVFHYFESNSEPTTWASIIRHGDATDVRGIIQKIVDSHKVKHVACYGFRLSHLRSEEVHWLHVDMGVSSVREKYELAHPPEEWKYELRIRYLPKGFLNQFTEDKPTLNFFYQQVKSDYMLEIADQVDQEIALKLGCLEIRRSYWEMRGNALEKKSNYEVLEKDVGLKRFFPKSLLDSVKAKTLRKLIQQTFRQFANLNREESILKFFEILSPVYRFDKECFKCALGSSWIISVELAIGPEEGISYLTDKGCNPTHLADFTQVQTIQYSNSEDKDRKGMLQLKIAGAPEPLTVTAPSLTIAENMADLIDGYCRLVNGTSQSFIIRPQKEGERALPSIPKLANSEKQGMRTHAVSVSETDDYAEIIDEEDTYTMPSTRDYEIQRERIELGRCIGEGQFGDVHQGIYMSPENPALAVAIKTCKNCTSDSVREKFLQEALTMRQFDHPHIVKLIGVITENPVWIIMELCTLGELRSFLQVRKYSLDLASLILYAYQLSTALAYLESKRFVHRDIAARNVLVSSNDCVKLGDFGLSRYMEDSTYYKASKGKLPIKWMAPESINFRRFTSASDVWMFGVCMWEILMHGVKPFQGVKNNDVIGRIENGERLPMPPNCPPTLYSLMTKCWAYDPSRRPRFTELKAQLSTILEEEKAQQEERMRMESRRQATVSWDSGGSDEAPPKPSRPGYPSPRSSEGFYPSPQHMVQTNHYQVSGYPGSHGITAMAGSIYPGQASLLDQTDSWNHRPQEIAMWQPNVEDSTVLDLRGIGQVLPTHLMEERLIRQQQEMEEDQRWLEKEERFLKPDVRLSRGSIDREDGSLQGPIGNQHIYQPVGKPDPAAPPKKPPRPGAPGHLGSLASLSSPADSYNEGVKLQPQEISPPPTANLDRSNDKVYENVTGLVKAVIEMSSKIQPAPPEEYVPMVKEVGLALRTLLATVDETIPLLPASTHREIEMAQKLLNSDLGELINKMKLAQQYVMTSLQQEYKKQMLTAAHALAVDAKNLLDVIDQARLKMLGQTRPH
Chain of UniProt Q16566 (whole entry, looked up): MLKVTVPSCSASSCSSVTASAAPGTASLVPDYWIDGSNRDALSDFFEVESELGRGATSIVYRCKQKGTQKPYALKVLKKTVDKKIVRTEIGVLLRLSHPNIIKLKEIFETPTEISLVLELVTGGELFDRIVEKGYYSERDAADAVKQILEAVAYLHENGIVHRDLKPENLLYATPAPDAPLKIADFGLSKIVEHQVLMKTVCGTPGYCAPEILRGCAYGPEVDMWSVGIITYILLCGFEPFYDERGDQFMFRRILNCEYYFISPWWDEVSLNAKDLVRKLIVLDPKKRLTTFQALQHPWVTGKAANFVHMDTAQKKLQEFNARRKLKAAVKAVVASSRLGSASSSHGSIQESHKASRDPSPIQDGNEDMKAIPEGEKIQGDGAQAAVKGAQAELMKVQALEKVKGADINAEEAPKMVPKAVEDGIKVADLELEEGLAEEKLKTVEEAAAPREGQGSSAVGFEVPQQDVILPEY
Chain of UniProt Q00535 (whole entry, looked up): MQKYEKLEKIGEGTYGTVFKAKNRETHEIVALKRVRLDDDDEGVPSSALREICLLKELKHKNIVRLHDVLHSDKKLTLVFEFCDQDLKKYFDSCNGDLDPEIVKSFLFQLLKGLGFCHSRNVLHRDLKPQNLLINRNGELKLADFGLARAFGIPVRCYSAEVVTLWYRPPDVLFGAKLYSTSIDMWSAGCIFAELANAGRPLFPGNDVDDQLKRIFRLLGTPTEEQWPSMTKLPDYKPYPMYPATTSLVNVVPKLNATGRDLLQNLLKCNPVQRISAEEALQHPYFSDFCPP

Set 1
SMILES: CCN(CC)C(=O)c1ccc(Nc2nc(OCC3CCCCC3)c3[nH]cnc3n2)cc1
Effect on: enzyme activity
Action: inhibitor
Tested at: 0.5 µM
Relative to: control
For CLK3 (Homo sapiens, UniProt P49761): remaining activity read 84.1%.
The remaining activity was 75.3% (MARK2 (Homo sapiens, UniProt Q7KZI7)).
For TXK (Homo sapiens, UniProt P42681): remaining activity read 46%.
MAP2K1 (Homo sapiens, UniProt Q02750) — remaining activity: 94.1%.
The remaining activity was 69.4% (NEK3 (Homo sapiens, UniProt P51956)).
For ROCK1 (Homo sapiens, UniProt Q13464): remaining activity read 54.9%.
The remaining activity was 97.7% (CAMK4 (Homo sapiens, UniProt Q16566)).

Set 2
Structure (SMILES): CCc1ccccc1C(=O)Nc1n[nH]c2c(C)c(F)c(C3C(C#N)=C(C)N(C)C(C)=C3C#N)cc12
Technique: competition with immobilised ligand
Tested at: 1 µM
TEC (Homo sapiens, UniProt P42680); binding — remaining binding: 91%.
It gave 73% for remaining binding (MAP4K1 (Homo sapiens, UniProt Q92918); cell-free assay).
For FLT3 (Homo sapiens, UniProt P36888, R834Q); cell-free assay: remaining binding read 89%.
The remaining binding was 0% (FLT3 (Homo sapiens, UniProt P36888, N841I); cell-free assay).
PRKACA (Homo sapiens, UniProt P17612); cell-free assay — remaining binding: 89%.
It gave 100% for remaining binding (DAPK1 (Homo sapiens, UniProt P53355); cell-free assay).
It gave 89% for remaining binding (CDK5 (Homo sapiens, UniProt Q00535); cell-free assay).
The remaining binding was 100% (LATS1 (Homo sapiens, UniProt O95835); cell-free assay).
The remaining binding was 92% (MAP3K7 (Homo sapiens, UniProt O43318); cell-free assay).
The remaining binding was 100% (STK32C (Homo sapiens, UniProt Q86UX6); binding).
It gave 100% for remaining binding (MAP3K5 (Homo sapiens, UniProt Q99683); cell-free assay).
SRPK3 (Homo sapiens, UniProt Q9UPE1); cell-free assay — remaining binding: 100%.
For EPHB6 (Homo sapiens, UniProt O15197); cell-free assay: remaining binding read 100%.
BRAF (Homo sapiens, UniProt P15056); cell-free assay — remaining binding: 78%.
For PTK2 (Homo sapiens, UniProt Q05397); cell-free assay: remaining binding read 82%.

Set 3
Target: Prothrombin, mature alpha-thrombin (F2, Homo sapiens, UniProt P00734)
Technique: aptamer microarray, sandwich
Molecule type: DNA with 2'F-ANA
Medium: in vitro
Tested at: 200 nM
Setting: whole 15-mer aptamer, many near background
With: Cy3 exosite-II aptamer, 400 nM
Reading: higher = stronger binding
Oligonucleotide: GGTTGGTGTGGTTGG
`2'F-ANA at 2 3 4 5 6 7 9 13 14` — result for “mean fluorescence intensity”: 44.8 a.u.
`2'F-ANA at 1 6 7 8 10 11 12 13 14 15` — result for “mean fluorescence intensity”: 54.3 a.u.
Under “mean fluorescence intensity”, `2'F-ANA at 2 7 8 9 11` is recorded as 447 a.u.
`2'F-ANA at 5 6 8 9 10 13 15` — result for “mean fluorescence intensity”: 51.1 a.u.
`2'F-ANA at 1 2 4 5 8 11 12 13 15`: “mean fluorescence intensity” 66.4 a.u.
For `2'F-ANA at 2 6 9 11 15`, “mean fluorescence intensity” read 292 a.u.
Under “mean fluorescence intensity”, `2'F-ANA at 2 4 5 6 8 9 12 15` is recorded as 140 a.u.
For `2'F-ANA at 2 6 7 10 11 12 13 15`, “mean fluorescence intensity” read 121 a.u.

Set 4
Target: CREBRF, bZIP domain (human)
Technique: DHFR protein complementation
Medium: yeast
Setting: single substitutions, most at no-binding floor
Relative to: wild-type JUN-FOS pair
Reading: higher = stronger binding
Starting sequence: JUN, bZIP domain (human); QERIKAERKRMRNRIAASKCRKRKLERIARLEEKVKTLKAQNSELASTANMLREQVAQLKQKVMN; partner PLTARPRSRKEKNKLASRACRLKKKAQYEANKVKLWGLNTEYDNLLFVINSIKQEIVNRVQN
With `S47P` the binding fitness was -1.56 natural log.
For `Q55H`, the binding fitness was -1.5 natural log.
The binding fitness of `T37H` is reported as -1.28 natural log.
The binding fitness of `K36M` is reported as -1.46 natural log.
`E33Q` gave a binding fitness of -1.6 natural log.
With `N42T` the binding fitness was -1.51 natural log.
`K34P` has a binding fitness of -1.51 natural log.
For `K39Y`, the binding fitness was -1.58 natural log.
